Experimental data gathered from unrelated publications.
Each line is one published result; not all experiments were run side by side. Numbers after ± are the reported error. Bridges are numbered along the chain shown (N, C = ends). Where no end group is shown, it is not given here.

`Cc1ccc(NC(=O)c2ccc(CN3CCN(C)CC3)cc2)cc1Nc1nccc(-c2cncc(-c3oncc3C)c2)n1`: “MDS-UPDRS part III score” 41 ± 18.3 (mild-to-moderate Parkinson's disease patients; oral, 100 mg once daily, pre-dose baseline, practically defined OFF state; direction not given).
`O=c1cc(-c2ccc(O)cc2)oc2cc(O)cc(O)c12` — result for “lowest effective concentration”: 250 to 500 µM (cell proliferation, CellTiter-Glo; cord blood CD34+ cells, human; 24 h, lowest dose with significant inhibition; relative to: vehicle).
For `CILDLPKFC (disulfide 1-9 (inferred)) (disulfide)`, “peptide-specific B cells” read greater than 60% (flow cytometry; human, follicular lymphoma biopsy cells; concentration not given).
`Polymyxin B` has an IL-10 release of 53.1 ± 16.8% (human whole blood; 50 ng/mL, 4 h, 37 °C, together with: E. coli LPS 0.5 ng/mL; relative to: LPS without compound).
Under “pain score AUC”, `Cc1ccn2c(Nc3ccc(Cl)cc3)c(-c3ccc(S(C)(=O)=O)cc3)nc2c1` is recorded as “decreased” (formalin test; male Wistar rat; intraperitoneal, 40 mg/kg; relative to: control group).
`CCOC(=O)c1cnc2[nH]ccc2c1N[C@@H]1CCCN(C(=O)CC#N)C1` gave an inhibition of 83% (measured: CCL8 mRNA; pig, skin; topical, 2% solution, 3 h, together with: intradermal IL-15; relative to: vehicle).
`O=C([O-])CN(CCN(CC(=O)[O-])Cc1cc(CCC(=O)NCCCCCC(=O)NCCCC[C@H](NC(=O)N[C@@H](CCC(=O)O)C(=O)O)C(=O)O)ccc1O)Cc1cc(CCC(=O)O)ccc1O.[18F-].[Al+3]` has a tumour-to-background ratio of 1 to 2 (microPET/CT; PC-3 xenograft, PSMA-negative, NSG mouse; relative to: muscle and liver).
`C[C@]12C=CC(=O)C=C1CC[C@@H]1[C@@H]2C(=O)C[C@@]2(C)[C@H]1CC[C@]2(O)C(=O)CO` has an anti-dsDNA titre of 8610 ± 1640 U/mL (BALB/c mouse pristane-induced lupus; oral, 15 mg/kg, weeks 1 to 20, read at week 20).
For `CCO[C@@H](Cc1ccc(OCCn2c(C)ccc2-c2ccc(SC)cc2)cc1)C(=O)O`, the effective dose was no less than 0.3 mg/kg (hepatic PPAR target gene induction; dyslipidemic Sprague-Dawley rat, liver; together with: ACC inhibitor).
`CC1(C)CCC(c2ccc(Cl)cc2)=C(CN2CCN(c3ccc(C(=O)NS(=O)(=O)c4ccc(N[C@H](CCN5CCOCC5)CSc5ccccc5)c(S(=O)(=O)C(F)(F)F)c4)cc3)CC2)C1` has an EC50 of 112 ± 97 nM (cell kill, PI exclusion flow cytometry; normal CD3+ T lymphocytes, dog, lymph node; 24 h).
For `O=C(/C=C/c1ccc(O)c(O)c1)O[C@H](Cc1ccc(O)c(O)c1)C(=O)O`, “CUPRAC antioxidant capacity” read 608.2 ± 1.2 (CUPRAC; unit not given; relative to: Trolox).
`Cc1ccc(NC(=O)c2ccc(CN3CCN(C)CC3)cc2)cc1Nc1nccc(-c2cccnc2)n1`: “reduction in RVSP” 28% (rat, SU5416/hypoxia PAH model; oral, 15.0 mg/kg once daily, 2 weeks; relative to: vehicle).
`Cc1cccc2nc(-c3ccc(S(C)(=O)=O)cc3)c(Nc3ccccc3)n12` — result for “pain score AUC”: “decreased” (formalin test; male Wistar rat; intraperitoneal, 40 mg/kg; relative to: control group).
For `C[C@@H]1CC(=O)NN=C1c1ccc(N)cc1`, “increase in contraction force” read 265 ± 62 mg (guinea pig papillary muscle; up to 30 µM, together with: forskolin 0.1 µM; relative to: baseline).
The pigmentation inhibition of `Cc1ccc(CN2CCN(C(=O)/C=C/c3ccc(O)cc3O)CC2)cc1` is reported as 16.3 ± 2.13% (zebrafish AB wild type, head melanin; 60 µM, 45 h, from 6 hpf).
`KSPNPRF (Cy5.5-labelled)` gave a fluorescence ratio of 5.03 fold (ex vivo fluorescence imaging; peptide, CPC;Apc mouse, excised colon adenoma; iv, 200 µL of 300 µM, Cy5.5 labelled; relative to: adenoma over normal mucosa).
For `Ac-CSNLSTCXLGRLSQDLHRLQTYPKTDVGANAP-NH2 (N-acetyl, C-amide)`, plasma insulin read “increased” (peptide, ZDF rats; 1.5 nmol/kg daily, 8 weeks; relative to: vehicle).
The tumour area of `Cc1cc(C)c(/C=C2\C(=O)Nc3ccccc32)[nH]1` is reported as 1.22 cm² (MRI; human; concentration not given, 11.4 months).
The vitellogenin level of `Oc1cccc2ccccc12` is reported as 2.2 ± 1.3 ng/mg liver (fish short-term reproduction; Oryzias latipes, male, liver; 80.0 µg/L, 21 d).
Under fractional shortening, `Nc1ncnc2c1ncn2[C@H]1[C@H](O)[C@H](O)[C@@]2(CP(=O)(O)O)C[C@H]12` is recorded as “no effect” (echocardiography; CSQ heart failure mouse; subcutaneous minipump, 3.3 µM, 28 days; relative to: vehicle).
`C[C@]1(c2nc3c(C(N)=O)cccc3[nH]2)CCCN1`: “PAR level decrease” no less than 50% (measured: poly(ADP-ribose); PBMC, cancer patients; dose not given, 504 h, day 21 cycle 1, together with: cyclophosphamide; relative to: baseline).
`COc1ccc2ccc(=O)oc2c1CC=C(C)C` — result for “concentration for maximal Cl− secretion”: 5 µmol/L (short-circuit current; rat distal colonic mucosa; mucosal and serosal application, together with: amiloride and indomethacin 10 µmol/L).
With `CC[C@H](C)[C@H](NC(=O)[C@H](CCC(=O)O)NC(=O)[C@H](CO)NC(=O)[C@@H](NC(=O)[C@@H](N)CO)C(C)C)C(=O)N[C@@H](CCC(N)=O)C(=O)N[C@@H](CC(C)C)C(=O)N[C@@H](CCSC)C(=O)N[C@@H](Cc1c[nH]cn1)C(=O)N[C@@H](CC(N)=O)C(=O)N[C@@H](CC(C)C)C(=O)NCC(=O)N[C@@H](CCCCN)C(=O)N[C@@H](Cc1c[nH]cn1)C(=O)N[C@@H](CC(C)C)C(=O)N[C@@H](CC(N)=O)C(=O)N[C@@H](CO)C(=O)N[C@@H](CCSC)C(=O)N[C@@H](CCC(=O)O)C(=O)N[C@@H](CCCNC(=N)N)C(=O)N[C@H](C(=O)N[C@@H](CCC(=O)O)C(=O)N[C@@H](Cc1c[nH]c2ccccc12)C(=O)N[C@@H](CC(C)C)C(=O)N[C@@H](CCCNC(=N)N)C(=O)N[C@@H](CCCCN)C(=O)N[C@@H](CCCCN)C(=O)N[C@@H](CC(C)C)C(=O)N[C@@H](CCC(N)=O)C(=O)N[C@@H](CC(=O)O)C(=O)N[C@H](C(=O)N[C@@H](Cc1c[nH]cn1)C(=O)N[C@@H](CC(N)=O)C(=O)N[C@@H](Cc1ccccc1)C(=O)O)C(C)C)C(C)C` the percent change was 4.9 to 8.6% (measured: serum P1NP; postmenopausal women, osteoporosis; subcutaneous, 56.5 µg once weekly, 24 h; relative to: 0 h value).
For `insulin aspart`, the GIRmax ratio was 1.03 (euglycaemic clamp; human, type 1 diabetes; 0.3 U/kg; relative to: compound over NN-Asp-US).
The IC50 of `Cc1cc2nc(-c3ccc(OCc4ccccc4)cc3)[nH]c2cc1C` is reported as 1660 nM (ABTS scavenging, absorbance).
For `COCCOCCOCCOCCOc1ccc(C2=N[C@@](C)(C(=O)[O-])CS2)c(O)c1.[Na+]`, “duration of iron excretion” read 24 h (bile duct-cannulated rats, non iron-overloaded, bile; oral, 300 µmol/kg).
`CCn1cnc(C[C@H](NC(=O)[C@@H]2CCC(=O)C2)C(=O)N2CCC[C@H]2C(N)=O)c1` has a sleeping time of 27.8 ± 4.8 min (Swiss albino mice; intravenous, 10 µmol/kg, together with: pentobarbital 50 mg/kg i.p. 10 min later).
With `[H]/N=C(/N)c1ccc(NCc2nc3cc(C(=O)N(CCC(=O)O)c4ccccn4)ccc3n2C)cc1` the EC50 was 7 nM (platelet activation, inhibitor, measured: ATP release; mouse platelet-rich plasma; 20% plasma, together with: thrombin).
The EC50 of `COc1cc(-c2cn(-c3ccc(C(C)(C)C)cc3)nn2)[nH]c1/C=N/C12CC3CC(CC(C3)C1)C2` is reported as 8 ± 1 nM (chloride/lactate exchange, ISE chloride efflux; POPC vesicles 0.5 mM; 300 s, pH 7.2, together with: sodium lactate 40 mM).
With `CCCCCCCCCCCCCCCC(=O)NCCCC[C@H](NC(=O)[C@H](CCC(=O)O)NC(=O)[C@H](CCC(=O)O)NC(=O)[C@H](Cc1ccc(O)cc1)NC(=O)[C@H](CCC(=O)O)NC(=O)CCCCCNC(=S)Nc1ccc2c(c1)C(=O)OC21c2ccc(O)cc2Oc2cc(O)ccc21)C(=O)N[C@@H](Cc1ccc(O)cc1)C(=O)N[C@@H](CCC(=O)O)C(=O)NCC(=O)NCC(=O)NCC(=O)NCC(=O)N[C@@H](CO)C(=O)NCC(=O)NCC(=O)NCC(=O)NCC(=O)N[C@@H](CO)C(=O)N[C@@H](Cc1ccccc1)C(=O)N[C@@H](CC(N)=O)C(=O)N1CCC[C@H]1C(=O)N[C@@H](CCCNC(=N)N)C(=O)N[C@@H](Cc1c[nH]cn1)C(=O)NC(C)(C)C(=O)N[C@@H](CCC(=O)O)C(=O)NCC(=O)N[C@H](C(=O)N[C@@H](Cc1ccccc1)C(=O)N[C@H](C(=O)N[C@@H](CO)C(=O)N[C@@H](CC(=O)O)C(=O)N[C@H](C(=O)N[C@@H](CO)C(=O)N[C@@H](CO)C(=O)N[C@@H](Cc1ccc(O)cc1)C(=O)N[C@@H](CC(C)C)C(=O)N[C@@H](CCC(=O)O)C(=O)NCC(=O)N[C@@H](CCC(N)=O)C(=O)N[C@@H](C)C(=O)N[C@@H](C)C(=O)N[C@@H](CCCCN)C(=O)N[C@@H](CCC(=O)O)C(=O)N[C@@H](Cc1ccccc1)C(=O)N[C@H](C(=O)N[C@@H](C)C(=O)N[C@@H](Cc1c[nH]c2ccccc12)C(=O)N[C@@H](CC(C)C)C(=O)N[C@H](C(=O)N[C@@H](CCCCN)C(=O)NCC(=O)N[C@@H](CCCNC(=N)N)C(=O)NCC(=O)O)C(C)C)[C@@H](C)CC)C(C)C)[C@@H](C)O)[C@@H](C)O` the serum ALT was 45 ± 3.5 IU/L (db/db mouse; subcutaneous, 90 nmol/kg twice weekly, 8 weeks).
`Cn1cc(-c2c[nH]c3ncnc(N4CCOCC4)c23)cc1C#N`: “plasma concentration at full LRRK2 dephosphorylation” greater than 10 nM (measured: pS935-LRRK2; rat, non-transgenic, lung; in diet, 3 days).
For `CC1(C)C2CCC1(C)C(OC(=O)C(O)Cc1ccc(O)c(O)c1)C2` (centres unmarked), “brain GSH level” read “increased” (C57BL/6 mouse, cerebral ischemia-reperfusion; iv, 12 mg/kg; relative to: untreated model).
Under “corrected calcium AUC(0-t)”, `teriparatide` is recorded as 27.6 mmol·h/L (healthy women, serum; subcutaneous, 20 µg, single dose).
`insulin aspart`: “plasma glucose AUC(0-1 h)” 158 mg·h/dL (obese type 2 diabetes patients; subcutaneous, 0.2 U/kg, within 2 min before 692 kcal meal).
For `CC(C)(C)OC(=O)NCC(=O)OC1CCC2(C)C(C(O)CC3(C)C2CC(O)C2C(C4(C)CCCC(C)(C)O4)CCC23C)C1(C)C` (centres unmarked), “tumour growth inhibition” read 76.2% (measured: tumour weight; nude mouse, HeLa xenograft; intraperitoneal, 50 mg/kg, every 2 days for 20 days).
`COc1ccc2c(c1)c(CC(=O)O)c(C)n2C(=O)c1ccc(Cl)cc1` has a cytokine level of 0 pg/mL (multiplex bead immunoassay, measured: IL-4; CD-1 mice, serum; ip, 20 mg/kg, three-injection regimen, together with: LPS 3 mg/kg).
For `CC(C)C[C@H](NC(=O)[C@H](CO)NC(=O)[C@H](CCCNC(=N)N)NC(=O)[C@H](CC(=O)O)NC(=O)[C@H](CCC(=O)O)NC(=O)[C@H](C)NC(=O)[C@@H]1CCCN1C(=O)[C@H](C)NC(=O)[C@H](CCC(=O)O)NC(=O)[C@@H]1CCCN1C(=O)[C@@H]1CCCN1)C(N)=O`, the DOPAC level was 2420 ± 241 ng/g (HPLC-EC; rat F344, unilateral 6-OHDA lesion, contralateral striatum; intranasal, 300 µg daily, 5 weeks post lesion).
`cilengitide`: “muscularis propria thickness” 80 ± 4 µm (Sprague-Dawley rats, TNBS colitis, colon; ip, 18 mg/kg/day, 42 d).
`N#CC[C@H](C1CCCC1)n1cc(-c2ncnc3[nH]ccc23)cn1` — result for arrhythmia duration: “decreased” (Ryr2 R176Q/WT CPVT mouse; intraperitoneal, 75 mg/kg, 10 min before test, induced ventricular arrhythmia).
`CCOC(=O)CSc1nnc(C23CC4CC(CC(C4)C2)C3)n1-c1ccccc1`: “inhibition in vivo” 44.6% (paw oedema; rat; intraperitoneal, 20 mg/kg).
`COc1ccc([C@H](CC(=O)O)N2CCN(CCCc3ccc4c(n3)NCCC4)C2=O)cn1` — result for “kidney fibrosis score”: “decreased” (Masson's trichrome staining; obese ZSF1 rat, kidney; 400 mg/kg/day, 28 weeks; relative to: obese vehicle).

Excerpt of the above:
For `CC(C)C[C@H](NC(=O)[C@H](CO)NC(=O)[C@H](CCCNC(=N)N)NC(=O)[C@H](CC(=O)O)NC(=O)[C@H](CCC(=O)O)NC(=O)[C@H](C)NC(=O)[C@@H]1CCCN1C(=O)[C@H](C)NC(=O)[C@H](CCC(=O)O)NC(=O)[C@@H]1CCCN1C(=O)[C@@H]1CCCN1)C(N)=O`, the DOPAC level was 2420 ± 241 ng/g (HPLC-EC; rat F344, unilateral 6-OHDA lesion, contralateral striatum; intranasal, 300 µg daily, 5 weeks post lesion).
`cilengitide`: “muscularis propria thickness” 80 ± 4 µm (Sprague-Dawley rats, TNBS colitis, colon; ip, 18 mg/kg/day, 42 d).
`N#CC[C@H](C1CCCC1)n1cc(-c2ncnc3[nH]ccc23)cn1` — result for arrhythmia duration: “decreased” (Ryr2 R176Q/WT CPVT mouse; intraperitoneal, 75 mg/kg, 10 min before test, induced ventricular arrhythmia).
`CCOC(=O)CSc1nnc(C23CC4CC(CC(C4)C2)C3)n1-c1ccccc1`: “inhibition in vivo” 44.6% (paw oedema; rat; intraperitoneal, 20 mg/kg).
`COc1ccc([C@H](CC(=O)O)N2CCN(CCCc3ccc4c(n3)NCCC4)C2=O)cn1` — result for “kidney fibrosis score”: “decreased” (Masson's trichrome staining; obese ZSF1 rat, kidney; 400 mg/kg/day, 28 weeks; relative to: obese vehicle).
